# Experimental data gathered from unrelated publications.
# Every numbered part comes from another study and shows a few of its results, in no order. Positions count from the first letter of the parent shown.

# Set 1 — target: UBE2W UBC core domain (UniProt Q96B02); method: yeast two-hybrid; matrix: yeast; setting: mostly zero background; reference: not given; direction: higher = stronger interaction
# B1: RBCK1 RING domain (UniProt Q9BYM8); chain SLVLNTEPAECPVCYSVLAPGEAVVLRECLHTFCRECLQGTIRNSQEAEVSCPFIDNTYSCSGKLLEREIK
# B2: SH3RF1 RING domain (UniProt Q7Z6J0); chain DESALLDLLECPVCLERLDASAKVLPCQHTFCKRCLLGIVGSRNELRCPECRTLVGSGVEEL
# B3: ZMIZ2 RING domain (UniProt Q8NF64); chain GTIPGTPGPNGEDGVEQTAIKVSLKCPITFRRIQLPARGHDCRHIQCFDLESYLQLNCERGTWRCPVCNKTALLEGLEVDQYMLGILIYIQNSDYEEITIDPTCSWK
# B4: RNF19A RING domain (UniProt Q9NV58); chain ISKQIGDFIECPLCLLRHSKDRFPDIMTCHHRSCVDCLRQYLRIEISESRVNISCPECTERFNPHDIR
# B5: RNF133 RING domain (UniProt Q8WVZ7); chain DEEINPNGDSCVICFERYKPNDIVRILTCKHFFHKNCIDPWILPHGTCPICKCDILKVLGIQ
# Residues (chain): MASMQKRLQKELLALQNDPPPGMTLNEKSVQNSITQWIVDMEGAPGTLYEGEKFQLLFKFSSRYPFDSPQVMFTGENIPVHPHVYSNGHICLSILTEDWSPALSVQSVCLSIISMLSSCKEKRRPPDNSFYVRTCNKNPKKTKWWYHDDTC
Sequence,lacZ reporter activity
B1 (RBCK1 RING domain),0
B2 (SH3RF1 RING domain),0
B3 (ZMIZ2 RING domain),0
B4 (RNF19A RING domain),0
B5 (RNF133 RING domain),2310
GSRLQEINDVCAICYHEFTTSARITPCNHYFHALCLRKWLYIQDTCPMCHQKVYIEDDIK (RNF139 RING domain (UniProt Q8WU17)),0
FDGDVDPDLKCALCHKVLEDPLTTPCGHVFCAGCVLPWVVQEGSCPARCRGRLSAKELN (PDZRN3 RING domain (UniProt Q9UPQ7)),0

# Set 2 — observed: peptide-MHC binding; molecule type: peptide; concentration: concentration not given
# Target: HLA class I histocompatibility antigen, A alpha chain, allele A*80:01 (Homo sapiens, UniProt P04439)
Sequence,binding
RTFDRFFEE,inactive
AKIALAVYK,inactive
RKLTNPANK,inactive
FTGWRDPGL,inactive
CRTAFKPVL,inactive
YAQMWSLMY,inactive

# Set 3 — method: EMSA with sequencing; molecule type: double-stranded DNA, one strand shown; matrix: in vitro; concentration: 10 and 20 nM; reference: negative control set to 0; direction: higher = stronger binding
# Target: Hepatocyte nuclear factor 3-alpha (Foxa1, Mus musculus, UniProt P35582, residues 1-468, full length assumed)
# Sequence of UniProt P35582 (whole entry, looked up): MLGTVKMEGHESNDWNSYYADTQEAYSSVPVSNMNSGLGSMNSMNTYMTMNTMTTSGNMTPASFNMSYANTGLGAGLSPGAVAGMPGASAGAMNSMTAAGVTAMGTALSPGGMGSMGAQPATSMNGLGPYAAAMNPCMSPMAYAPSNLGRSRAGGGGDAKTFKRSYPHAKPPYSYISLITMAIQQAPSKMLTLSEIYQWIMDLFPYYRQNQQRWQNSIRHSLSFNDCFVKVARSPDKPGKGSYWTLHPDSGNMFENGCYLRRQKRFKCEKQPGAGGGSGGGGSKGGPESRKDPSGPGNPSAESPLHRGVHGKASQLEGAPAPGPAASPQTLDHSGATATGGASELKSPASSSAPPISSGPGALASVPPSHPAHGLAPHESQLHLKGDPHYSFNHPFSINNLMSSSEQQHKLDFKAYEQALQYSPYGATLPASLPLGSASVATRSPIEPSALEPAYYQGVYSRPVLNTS
# Setting: whole designed probe, mean of two concentrations, ends assumed
# Constant ends, left off below: GTGAGCGGTGCCCATTGATGGGGAAC … TTTCACTGGGATCGTGGGGAC
Oligonucleotide,normalised bound fraction [ratio]
CTACTGCACAGAAAATTATCTGCTAAAATTCTGTGCAATGTGCATTGTTATTCTCTAAGTTTTTTTTTAAATAGCTATTTTGTAAAAATCCTAAGTAATCTTGACTTGTAATGCAGGATACAAACTTTCATTTGTCTGTGACATCTGCAAGAGAAAGATGTGATGTCCCCATTTAAAGAGGAATAGCTGATTA,-0.063
ATCTTCCCCCTCTTCCTTGCCCCACCAGCTCACCTTCCCGGGTTATTTGCACAAAGGAAAATAAATAAAGCCGGCATTCGTTAACGCAGTTCACGCGCATACTGCTGTTTGCTCTGCATCTAACATGGTCCTTACGCGACGCCAGGCTCCGGGAGAGCAAAGCACCGTGTCAGGCGCATGATCCGGGCTCGCC,0.389
TTTGGATGTTGTCAGTGGGCAGAGATCAGGTCATGTAAGATTACACAGATGGAACAAAGGATTTTTACCCCTTCAGCCAGATCTGGGACTCAATGTAATCTGCAAGATAACAACACAGGAAGGGTTGCAAACATTGTGCCTAGCACAGGGATGACAGCAGGGCGAATCCTGTAATGTCAAATGTCAGTCAAAT,0.0153
CAAGTTTGTGGTCCAGGAGCAACAGGTTATGCCATACAGCCTAGGTGTGTAGTAGGCTACACACCGTCTACCATGACTCATTACACTCTACAATGTTTGCACAATGATGAAATCCCATGTCACATTTCTCAGAACATACCCCTGTTGTTAAGCGATACATGACTGTACTTTTTTTAAAAAGTCCAAGGATATA,0.438
AGTTGCAGTCCAGGAAAAAGAAGGCACAAACACTGCTGATCAAATATTACTAAAGCTTTTATGGACTCTTGAACCTCATTTTCCCTCCCAAAAGTACTCTAGACACACTTCATTCTTACTCTGTTTATGCCTCTCTGTCTAATAGAAACTTCACTTCTGACTCCAGCTTTGTCTAATTATTAACACAGAGAGG,0.0577

# Set 4 — target: CCNB1, cyclin fold, Cln2 fusion (human); method: yeast growth competition, sequencing; matrix: yeast; setting: strong parent motif; reference: not given; direction: higher = stronger binding; parent: viral docking peptide; KGVKRKLFAEDSS
Substitution,normalised enrichment score
KGVKRKLFMEDSS [A9M],2.03
KCVKRKLFAEDSS [G2C],2.54
KGVKRKLFSEDSS [A9S],2.14
KGGKRKLFAEDSS [V3G],0.488
KGMKRKLFAEDSS [V3M],-0.373

# Repeated from above (set 2):
Sequence,binding
FTGWRDPGL,inactive
CRTAFKPVL,inactive
YAQMWSLMY,inactive
